Assay results collected from several papers.

Protein sequences, listed by entry. Tags and fused reporters are not part of them.
UniProt P28223, whole entry: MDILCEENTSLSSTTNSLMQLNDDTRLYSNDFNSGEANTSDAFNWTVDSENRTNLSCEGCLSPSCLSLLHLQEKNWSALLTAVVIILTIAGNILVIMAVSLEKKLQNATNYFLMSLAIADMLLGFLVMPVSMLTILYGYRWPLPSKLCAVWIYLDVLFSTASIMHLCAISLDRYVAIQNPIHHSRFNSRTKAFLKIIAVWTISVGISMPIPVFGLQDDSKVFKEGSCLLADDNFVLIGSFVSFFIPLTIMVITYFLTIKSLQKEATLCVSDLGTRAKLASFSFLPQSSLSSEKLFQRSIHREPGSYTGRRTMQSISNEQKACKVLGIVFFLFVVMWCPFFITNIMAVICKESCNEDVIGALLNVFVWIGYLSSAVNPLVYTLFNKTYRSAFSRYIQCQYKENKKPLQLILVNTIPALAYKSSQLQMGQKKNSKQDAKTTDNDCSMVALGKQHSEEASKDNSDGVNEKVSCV

| Structure (SMILES) | target or system | test | test system | setting | scale | endpoint | value |
| --- | --- | --- | --- | --- | --- | --- | --- |
| C=CC(=O)Nc1cc(-n2c(=O)ccc3cnc4ccc(-c5cn[nH]c5)cc4c32)ccc1C | OCI-AML-3 | – | – | 48 h | – | concentration inducing apoptosis | 5 µM |
| Cc1ccc(N(C)c2cc(N(C)C3CC3)n3ncc(C#N)c3n2)cc1NC(=O)C1CC1 | NCI60 cancer cell lines | cell growth | – | 10 µM | – | inhibition | > 58 %I |
| [O-][S+](CCCCOc1ccc(C(=C2C3CC4CC(C3)CC2C4)c2ccc(O)cc2)cc1)CCCC(F)(F)C(F)(F)F (centres unmarked) | MCF7 inducible wild-type ERα | cell proliferation, inhibitor, MTT | – | 5 days | – | IC50 | 4.4 nM |
| O=C(C=Cc1ccc(C(F)(F)F)cc1)Nc1ccc(Oc2ccccc2)c(S(=O)(=O)O)c1 | HEK293 AP-1-luc | AP-1 reporter gene, inhibitor | – | 24 h, with: 20% serum | – | IC50 | 640 nM |
| CCc1nc(N)nc(N)c1C#CC(C)c1cc2c(c(-c3ccc(C(=O)O)cc3)c1)OCO2 (centres unmarked) | MCF-10A | cytotoxicity, Alamar Blue | – | four hours | – | IC50 | > 200 µg/mL |
| NC[C@@H](NC[C@@H]1CCCN1C[C@@H](CO)NC[C@@H](NCCC12CC3CC(CC(C3)C1)C2)c1ccccc1)c1ccccc1 | Escherichia coli | bacterial growth | – | 8 µM, fold shift of IC50, with: amikacin | – | potentiation of amikacin | 1.3 fold |
| CCc1nc(N)nc(N)c1C#CC(C)c1cc2c(c(-c3ccc(CC(=O)O)cc3)c1)OCO2 (centres unmarked) | HepG2 | cytotoxicity, Alamar Blue | – | four hours | – | IC50 | > 200 µg/mL |
| CC(=O)OC1CC[C@H]2C3=C(CC[C@]12C)[C@]1(C)c2c(coc2C3=O)[C@@H](OC(C)=O)[C@@H]2O[C@@H]21 (some centres unmarked) | MDA-MB-231 | DCFH-DA fluorescence | – | concentration not given, unit not given | relative to: untreated | ROS level | 1.24 |
| COc1ccc(CN[C@@H]2CO[C@H](C(c3ccccc3)c3ccccc3)C[C@H]2O)cc1 | HTR2A (Homo sapiens, UniProt P28223) | radioligand binding | – | 10 µM, with: [3H]ketanserin | – | inhibition | 12.7% |
| COCCCn1nc(-c2ccc(CC(=O)Nc3cccc(F)c3)cc2)c2c(N)ncnc21 | A549 | cell viability | – | – | – | EC50 | > 20000 nM |
| CC(C)(C)c1ccc(C(=O)Nc2cc(Cl)c(Cl)cc2C(=O)O)cc1 | IMR-90 | cytotoxicity, CellTiter-Blue | – | 44 to 46 h | – | EC50 | > 25000 nM |
| NC[C@@H](NC[C@@H]1CCCN1C[C@@H](CO)NC[C@@H](NCCc1ccc(-c2ccccc2)cc1)c1ccccc1)c1ccccc1 | Escherichia coli | bacterial growth | – | 16 µM, fold shift of IC50, with: amikacin | – | potentiation of amikacin | 0.9 fold |
| CC(C)(C)c1ccc(C(=O)Nc2cc(Cl)c(F)cc2C(=O)O)cc1 | IMR-90 | cytotoxicity, CellTiter-Blue | – | 44 to 46 h | – | EC50 | > 25000 nM |
| [O-][S+](CCCCOc1ccc(C(=C2C3CCCC2CCC3)c2ccc(O)cc2)cc1)CCCC(F)(F)C(F)(F)F (centres unmarked) | MCF7 inducible wild-type ERα | cell proliferation, inhibitor, MTT | – | 5 days | – | IC50 | 3.8 nM |
| C[C@H](CS)C(=O)N[C@H](Cc1c[nH]c2ccccc12)C(=O)O | Enterobacter aerogenes | – | VIM-1 producing | 10 µM, with: meropenem | – | MIC of meropenem | 8 µg/mL |
| NCCNCCSc1ccccc1 | – | – | Swiss Albino mouse, female | oral, 600 mg/kg, single dose, non-compartmental | – | mean residence time (MRT0-inf) | 8.99 h |
| Cc1cc(N)nc(-c2ccc(CNCCc3cccc(F)c3)cc2)c1 | mouse embryonic fibroblasts | cytotoxicity, CellTiter-Glo | – | 72 h | – | IC50 | 11900 nM |

Some of these lines once more:
| Structure (SMILES) | target or system | test | test system | setting | scale | endpoint | value |
| --- | --- | --- | --- | --- | --- | --- | --- |
| CC(C)(C)c1ccc(C(=O)Nc2cc(Cl)c(Cl)cc2C(=O)O)cc1 | IMR-90 | cytotoxicity, CellTiter-Blue | – | 44 to 46 h | – | EC50 | > 25000 nM |
